Assay results pooled from the literature.
A part holds a random share of what one study measured. “And” joins repeats or separate records; there may be more than shown.
Sequence of UniProt Q9HCP0 (whole entry, looked up): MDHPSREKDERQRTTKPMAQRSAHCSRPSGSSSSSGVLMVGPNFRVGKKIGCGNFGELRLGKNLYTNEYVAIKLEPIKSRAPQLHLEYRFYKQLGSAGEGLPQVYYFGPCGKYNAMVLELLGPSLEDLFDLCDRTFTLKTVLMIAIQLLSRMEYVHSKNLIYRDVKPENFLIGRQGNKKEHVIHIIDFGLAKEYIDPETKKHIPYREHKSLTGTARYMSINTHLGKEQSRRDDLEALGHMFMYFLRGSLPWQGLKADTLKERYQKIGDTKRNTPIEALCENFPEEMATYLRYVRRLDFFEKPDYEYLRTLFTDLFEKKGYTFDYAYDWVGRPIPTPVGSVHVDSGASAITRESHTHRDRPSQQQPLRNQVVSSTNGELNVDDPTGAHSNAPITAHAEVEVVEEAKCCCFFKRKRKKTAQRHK
Sequence of UniProt P27361 (whole entry, looked up): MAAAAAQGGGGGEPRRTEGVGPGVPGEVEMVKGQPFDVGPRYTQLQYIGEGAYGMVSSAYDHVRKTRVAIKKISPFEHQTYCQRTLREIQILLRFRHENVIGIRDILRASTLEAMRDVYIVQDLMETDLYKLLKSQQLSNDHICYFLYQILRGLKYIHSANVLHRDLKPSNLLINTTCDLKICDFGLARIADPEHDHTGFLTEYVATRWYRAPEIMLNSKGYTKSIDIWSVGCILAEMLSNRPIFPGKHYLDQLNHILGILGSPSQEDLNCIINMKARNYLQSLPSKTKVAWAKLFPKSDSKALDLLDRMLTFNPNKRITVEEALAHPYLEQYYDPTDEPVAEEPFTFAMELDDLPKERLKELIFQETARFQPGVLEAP
Sequence of UniProt O94768 (whole entry, looked up): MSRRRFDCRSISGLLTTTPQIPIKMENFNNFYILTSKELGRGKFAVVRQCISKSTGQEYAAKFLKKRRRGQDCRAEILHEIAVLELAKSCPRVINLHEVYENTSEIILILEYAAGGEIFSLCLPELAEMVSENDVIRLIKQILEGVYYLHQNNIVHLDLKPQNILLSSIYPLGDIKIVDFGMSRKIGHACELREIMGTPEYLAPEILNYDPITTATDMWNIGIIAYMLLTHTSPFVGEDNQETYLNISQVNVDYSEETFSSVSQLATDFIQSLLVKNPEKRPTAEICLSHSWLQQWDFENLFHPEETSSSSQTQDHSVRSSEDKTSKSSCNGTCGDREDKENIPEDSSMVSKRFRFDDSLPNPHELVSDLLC
Sequence of UniProt Q00535 (whole entry, looked up): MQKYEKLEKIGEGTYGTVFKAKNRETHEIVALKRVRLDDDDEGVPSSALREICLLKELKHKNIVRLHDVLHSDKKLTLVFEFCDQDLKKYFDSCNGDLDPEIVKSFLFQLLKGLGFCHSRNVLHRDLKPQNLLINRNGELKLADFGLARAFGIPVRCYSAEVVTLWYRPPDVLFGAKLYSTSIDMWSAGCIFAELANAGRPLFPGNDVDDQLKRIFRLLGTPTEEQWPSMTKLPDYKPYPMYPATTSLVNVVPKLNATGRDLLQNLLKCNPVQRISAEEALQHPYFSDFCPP
Sequence of UniProt Q8IVH8 (whole entry, looked up): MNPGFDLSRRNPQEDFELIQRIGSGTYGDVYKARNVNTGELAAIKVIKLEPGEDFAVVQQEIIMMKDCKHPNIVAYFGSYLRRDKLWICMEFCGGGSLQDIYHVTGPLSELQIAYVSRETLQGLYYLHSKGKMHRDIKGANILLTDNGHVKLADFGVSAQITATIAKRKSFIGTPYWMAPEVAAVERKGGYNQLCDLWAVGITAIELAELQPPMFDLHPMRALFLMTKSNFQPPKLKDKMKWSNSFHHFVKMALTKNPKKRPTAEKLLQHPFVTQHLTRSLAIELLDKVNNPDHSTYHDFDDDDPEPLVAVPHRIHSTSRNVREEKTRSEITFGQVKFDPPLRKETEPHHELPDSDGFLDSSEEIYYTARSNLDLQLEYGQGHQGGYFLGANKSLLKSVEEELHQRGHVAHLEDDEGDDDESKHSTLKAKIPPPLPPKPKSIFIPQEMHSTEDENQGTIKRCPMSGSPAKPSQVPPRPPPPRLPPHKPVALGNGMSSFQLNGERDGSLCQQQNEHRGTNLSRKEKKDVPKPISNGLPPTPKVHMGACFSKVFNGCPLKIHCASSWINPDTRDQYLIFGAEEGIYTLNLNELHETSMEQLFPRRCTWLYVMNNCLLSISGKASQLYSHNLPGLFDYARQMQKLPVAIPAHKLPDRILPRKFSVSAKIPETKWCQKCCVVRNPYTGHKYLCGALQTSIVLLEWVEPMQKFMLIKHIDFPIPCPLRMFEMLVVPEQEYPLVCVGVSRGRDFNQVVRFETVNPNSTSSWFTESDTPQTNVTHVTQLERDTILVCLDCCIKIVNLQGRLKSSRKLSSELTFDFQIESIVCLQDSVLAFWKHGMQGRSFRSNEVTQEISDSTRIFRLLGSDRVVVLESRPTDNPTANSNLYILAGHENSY
Sequence of UniProt O15197 (whole entry, looked up): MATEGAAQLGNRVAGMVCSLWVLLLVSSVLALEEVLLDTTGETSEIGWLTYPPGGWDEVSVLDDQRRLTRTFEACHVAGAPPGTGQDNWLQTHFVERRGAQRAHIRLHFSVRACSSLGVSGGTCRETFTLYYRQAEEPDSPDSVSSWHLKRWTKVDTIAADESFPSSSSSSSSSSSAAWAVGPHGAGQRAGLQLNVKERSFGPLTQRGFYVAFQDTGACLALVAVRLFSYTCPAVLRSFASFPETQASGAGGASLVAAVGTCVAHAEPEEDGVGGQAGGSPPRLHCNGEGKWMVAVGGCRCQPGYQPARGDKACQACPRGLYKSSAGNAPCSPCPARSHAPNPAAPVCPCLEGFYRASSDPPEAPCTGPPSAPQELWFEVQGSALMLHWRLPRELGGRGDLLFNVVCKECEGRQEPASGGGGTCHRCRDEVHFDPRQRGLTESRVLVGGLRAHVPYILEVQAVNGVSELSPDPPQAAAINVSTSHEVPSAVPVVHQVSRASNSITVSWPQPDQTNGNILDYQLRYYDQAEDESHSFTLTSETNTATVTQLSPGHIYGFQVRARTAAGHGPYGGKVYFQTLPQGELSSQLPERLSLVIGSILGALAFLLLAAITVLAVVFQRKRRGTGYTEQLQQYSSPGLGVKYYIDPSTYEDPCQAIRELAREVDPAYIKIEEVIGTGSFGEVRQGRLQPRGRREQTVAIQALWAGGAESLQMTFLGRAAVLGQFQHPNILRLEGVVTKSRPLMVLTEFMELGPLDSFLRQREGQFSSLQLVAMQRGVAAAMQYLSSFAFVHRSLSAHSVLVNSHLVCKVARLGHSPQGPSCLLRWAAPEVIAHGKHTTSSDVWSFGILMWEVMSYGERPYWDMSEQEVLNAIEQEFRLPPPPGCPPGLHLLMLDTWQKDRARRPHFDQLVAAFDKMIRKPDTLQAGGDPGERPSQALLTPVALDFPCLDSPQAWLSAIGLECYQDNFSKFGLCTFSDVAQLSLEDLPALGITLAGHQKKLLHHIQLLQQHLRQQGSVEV
Sequence of UniProt Q13705 (whole entry, looked up): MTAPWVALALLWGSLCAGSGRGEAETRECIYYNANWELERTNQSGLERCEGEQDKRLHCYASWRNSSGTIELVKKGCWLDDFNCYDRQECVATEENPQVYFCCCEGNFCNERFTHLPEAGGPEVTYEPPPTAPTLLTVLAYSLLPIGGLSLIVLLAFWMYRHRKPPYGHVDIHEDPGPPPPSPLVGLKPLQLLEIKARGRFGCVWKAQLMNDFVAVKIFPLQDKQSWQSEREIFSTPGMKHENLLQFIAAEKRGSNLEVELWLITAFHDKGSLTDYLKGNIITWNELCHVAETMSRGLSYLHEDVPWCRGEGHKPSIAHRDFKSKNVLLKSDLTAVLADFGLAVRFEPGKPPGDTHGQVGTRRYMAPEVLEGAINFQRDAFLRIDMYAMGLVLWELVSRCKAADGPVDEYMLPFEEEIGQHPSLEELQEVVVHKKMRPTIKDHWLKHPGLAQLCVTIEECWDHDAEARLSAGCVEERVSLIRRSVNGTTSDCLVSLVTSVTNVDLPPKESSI
Sequence of UniProt P15056 (whole entry, looked up): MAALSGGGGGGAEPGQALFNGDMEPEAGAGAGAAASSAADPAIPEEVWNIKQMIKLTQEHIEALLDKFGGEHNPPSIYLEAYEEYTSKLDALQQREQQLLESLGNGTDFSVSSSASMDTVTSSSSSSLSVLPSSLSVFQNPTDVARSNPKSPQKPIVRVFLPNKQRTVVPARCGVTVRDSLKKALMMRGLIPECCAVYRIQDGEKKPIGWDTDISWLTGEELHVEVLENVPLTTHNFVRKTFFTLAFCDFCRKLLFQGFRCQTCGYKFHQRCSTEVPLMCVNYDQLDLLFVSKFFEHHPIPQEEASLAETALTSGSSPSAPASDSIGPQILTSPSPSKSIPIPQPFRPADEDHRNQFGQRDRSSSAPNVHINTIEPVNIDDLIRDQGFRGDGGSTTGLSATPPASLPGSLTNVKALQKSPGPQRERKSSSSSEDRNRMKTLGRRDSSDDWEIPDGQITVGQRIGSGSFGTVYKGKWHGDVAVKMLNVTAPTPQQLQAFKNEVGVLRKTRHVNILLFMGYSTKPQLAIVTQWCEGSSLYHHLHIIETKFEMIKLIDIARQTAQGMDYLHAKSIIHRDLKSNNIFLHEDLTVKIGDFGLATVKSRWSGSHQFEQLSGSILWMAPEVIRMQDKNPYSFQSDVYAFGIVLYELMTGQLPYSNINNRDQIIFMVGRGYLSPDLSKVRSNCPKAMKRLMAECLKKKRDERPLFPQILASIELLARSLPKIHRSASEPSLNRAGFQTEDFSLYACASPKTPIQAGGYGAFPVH

Set 1
Organism: Sarcocystis neurona
Read-out: parasite growth
Concentration: 10 µM
Setting: secondary screen
Structure (SMILES)	inhibition [%]
CC(C)(C)NCC(O)c1cc(O)cc(O)c1 (stereo not shown)	-42
CSc1ccc2c(c1)N(CCC1CCCCN1C)c1ccccc1S2 (stereo not shown)	42.6
C[C@@H](O)[C@H]1C(=O)N2C(C(=O)O)=C(S[C@@H]3CN[C@H](C(=O)N(C)C)C3)[C@H](C)[C@H]12	-57.8

Set 2
Target: Prothrombin, mature alpha-thrombin (F2, Homo sapiens, UniProt P00734)
Method: aptamer microarray, sandwich
Form: DNA with 2'F-ANA
Sample: in vitro
Concentration: 200 nM
Setting: whole 15-mer aptamer, many near background
With: Cy3 exosite-II aptamer, 400 nM
Reading: higher = stronger binding
Oligonucleotide: GGTTGGTGTGGTTGG
Modification	mean fluorescence intensity
2'F-ANA at 2 3 4 5 6 12 13 15	119 a.u.
2'F-ANA at 5 6 7 8 10 12 13 14	43.5 a.u.
2'F-ANA at 3 4 5 6 7 8 11 12 13	169 a.u.
2'F-ANA at 2 4 5 6 8 9 10 15	50.1 a.u.
2'F-ANA at 2 3 6 8 13	666 a.u.
2'F-ANA at 2 5 9 11 13 14	413 a.u.
2'F-ANA at 1 3 10 11 12 13 14	60.1 a.u.
2'F-ANA at 1 4 6 8 13	83.3 a.u.

Set 3
SMILES: CN(C)C(=O)Cn1cc(-c2nc([C@@](C)(c3ccc(-c4cnc(N)nc4)cc3)C3CC3)no2)cn1
Read-out: cell-free assay
Method: competition with immobilised ligand
Concentration: 1 µM
target	remaining binding [%]
Serine/threonine-protein kinase 17B (STK17B, Homo sapiens, UniProt O94768)	88
Cyclin-dependent kinase 5 (CDK5, Homo sapiens, UniProt Q00535)	100
Activin receptor type-2B (ACVR2B, Homo sapiens, UniProt Q13705)	81
Focal adhesion kinase 1 (PTK2, Homo sapiens, UniProt Q05397)	100
Tyrosine-protein kinase ABL1, non-phosphorylated (ABL1, Homo sapiens, UniProt P00519, T315I)	86
Casein kinase I isoform gamma-1 (CSNK1G1, Homo sapiens, UniProt Q9HCP0)	100
Serine/threonine-protein kinase MRCK alpha (CDC42BPA, Homo sapiens, UniProt Q5VT25)	100
Mitogen-activated protein kinase kinase kinase kinase 3 (MAP4K3, Homo sapiens, UniProt Q8IVH8)	100
Leucine-rich repeat serine/threonine-protein kinase 2 (LRRK2, Homo sapiens, UniProt Q5S007, G2019S)	100
Ephrin type-B receptor 6 (EPHB6, Homo sapiens, UniProt O15197)	76
Cyclin-dependent kinase 9 (CDK9, Homo sapiens, UniProt P50750)	96
Mitogen-activated protein kinase 3 (MAPK3, Homo sapiens, UniProt P27361)	100
Phosphatidylinositol 4,5-bisphosphate 3-kinase catalytic subunit beta isoform (PIK3CB, Homo sapiens, UniProt P42338)	100
Membrane-associated tyrosine- and threonine-specific cdc2-inhibitory kinase (PKMYT1, Homo sapiens, UniProt Q99640)	88
Mitogen-activated protein kinase kinase kinase 7 (MAP3K7, Homo sapiens, UniProt O43318)	50
Phosphatidylinositol 4,5-bisphosphate 3-kinase catalytic subunit alpha isoform (PIK3CA, Homo sapiens, UniProt P42336, E545K)	81
Serine/threonine-protein kinase B-raf (BRAF, Homo sapiens, UniProt P15056)	82

Set 4
Cell line: A-375
Concentration: 100 µM
Time: 36 h
SMILES	viability
CC(=O)OCC(=O)[C@H]1CC[C@H]2[C@@H]3CCC4=CC(=O)CC[C@]4(C)[C@H]3CC[C@]12C	69.2%
c1ccc2[nH]c(-c3cscn3)nc2c1	91.8%
Cc1nc(Nc2ncc(C(=O)Nc3c(C)cccc3Cl)s2)cc(N2CCN(CCO)CC2)n1	6.5% and 2.82%
CN[C@@H]1[C@H](O[C@H]2[C@H](O[C@H]3[C@H](O)[C@@H](O)[C@H](NC(=N)N)[C@@H](O)[C@@H]3NC(=N)N)O[C@@H](C)[C@]2(O)CO)O[C@@H](CO)[C@H](O)[C@H]1O	111%

Single results of other studies
Host: human
Sample: microsomes or S9
Concentration: 2 µM
Time: 0.5 h
Compound	remaining compound
NCC1Cc2cc(F)cc(-c3ccnc4c(C(F)(F)F)cccc34)c2O1 (stereo not shown)	> 99.9%
CC1=C(c2ccc(F)cc2)S(=O)(=O)N=C1Nc1ccc2[nH]c(C(F)(F)F)nc2c1	49.8%
